Assay results from different studies.
Protocols differ between the studies behind these lines. ± marks the error that the study gave.
Organism: Trypanosoma brucei brucei

SMILES | observed | technique | strain | time | temperature | IC50 [µM]
CCCCCCCCCCC[C@@H](O)CC(=O)N[C@@H](CC(C)C)C(=O)N[C@H](CCC(=O)O)C(=O)N[C@H]1C(=O)N[C@H]([C@@H](C)CC)C(=O)N[C@H](CC(C)C)C(=O)N[C@H](CO)C(=O)N[C@@H](CC(C)C)C(=O)N[C@@H](CC(C)C)C(=O)N[C@H](CO)C(=O)N[C@@H](C(C)C)C(=O)O[C@@H]1C | cell growth | – | bloodstream form | 24 or 48 h | 37 °C | 6
O=[N+]([O-])c1ccc(/C=N/N=C/c2ccc(Cl)cc2)s1 | parasite growth | CellTiter-Glo | GUTat3.1 bloodstream form | 72 h | – | 0.84 ± 0.42
CCOC(=O)C(CC)NC(=O)CN1C(=O)S/C(=C\c2ccc([N+](=O)[O-])cc2)C1=O (stereo not shown) | cell viability | – | GUTat3.1 | 72 h | – | > 66
O=C(Nc1ccc2c(c1)CN(c1ccccc1)C2=O)N1CCN(c2ccc(F)cc2)CC1 | parasite growth | resazurin | Squib 427 | 3 d | – | > 64
CCC(NC(=O)CN1C(=O)N/C(=C\c2ccc(C)cc2)C1=O)C(=O)OC (stereo not shown) | cell viability | – | GUTat3.1 | 72 h | – | > 64
O=[N+]([O-])c1ccc(/C=N/N=C/c2ccc([N+](=O)[O-])s2)cc1 | parasite growth | CellTiter-Glo | GUTat3.1 bloodstream form | 72 h | – | 0.91 ± 0.51
O=C(Nc1ccc2c(c1)CN(c1ccc(F)c(F)c1)C2=O)N1CCN(c2ccc(Cl)cc2)CC1 | parasite growth | resazurin | Squib 427 | 3 d | – | 44.7
O=[N+]([O-])c1ccc(/C=N/N=C/c2ccc(Br)cc2)s1 | parasite growth | CellTiter-Glo | GUTat3.1 bloodstream form | 72 h | – | 0.82 ± 0.45
CCOC(=O)C(CC)NC(=O)CN1C(=O)S/C(=C\c2ccc(C)cc2)C1=O (stereo not shown) | cell viability | – | GUTat3.1 | 72 h | – | > 59
O=C(Nc1ccc2c(c1)CN(c1ccc(Cl)c(Cl)c1)C2=O)N1CCN(c2ccccc2)CC1 | parasite growth | resazurin | Squib 427 | 3 d | – | 27.6

Repeated from above:
SMILES | observed | technique | strain | time | temperature | IC50 [µM]
O=C(Nc1ccc2c(c1)CN(c1ccc(Cl)c(Cl)c1)C2=O)N1CCN(c2ccccc2)CC1 | parasite growth | resazurin | Squib 427 | 3 d | – | 27.6
